Results from different studies.
Compare with care: the assays were run in different laboratories.
Cell line: HCT-15

Fc1cccc(CNc2nc(NCc3ccccc3)c3ccccc3n2)c1 — GI50 (cell growth or viability; 72 h): 3.5 µM
COc1cc(CNC(=O)C[C@H](C)CCC=C(C)C)ccc1OCc1cn(-c2ccc(Br)cc2)nn1 — growth percent (SRB; 10 µM, 48 h): 82.3%
COc1cc(/C=C/C(=O)/C=C(O)/C=C/c2ccc(OCC(=O)N3CCOCCOCCOCC3)c(OC)c2)ccc1OCC(=O)N1CCOCCOCCOCC1 — inhibition (cell growth or viability, SRB; 5 µM): 25%
Clc1cccc(Nc2nc(NCc3ccccc3)c3ccccc3n2)c1 — GI50 (cell growth or viability; 72 h): 2.5 µM
COc1cc(CNC(=O)C[C@H](C)CCC=C(C)C)ccc1OCc1cn(-c2ccc([N+](=O)[O-])cc2)nn1 — growth percent (SRB; 10 µM, 48 h): 71.8%
CC(Cc1ccc(Cl)cc1)=C(c1ccc(Cl)cc1)c1ccc(OCCN(C)C)cc1 — GI50 (cell growth or viability, SRB): 1.19 µM
COc1cc(CNC(=O)C[C@H](C)CCC=C(C)C)ccc1OCc1cn(-c2cccc(C(F)(F)F)c2)nn1 — growth percent (SRB; 10 µM, 48 h): 56.8%
CC/C=C\C/C=C\C/C=C\C/C=C\C/C=C\C/C=C\CCC(=O)Nc1ccn(C2OC(CO)C(O)C2(F)F)c(=O)n1 (centres unmarked) — GI50 (cell growth or viability, SRB): 1.86 µM
CC(=O)c1cccc(NC2C(N)C(NC(=O)N(C)C)(C(C)O)C(O)C2(O)COC(=O)c2c(C)cccc2O)c1 (centres unmarked) — GI50 (cell growth or viability, SRB): 0.16 µM
CC(=O)OC[C@H]1O[C@@H](Sc2sc(C(=O)c3ccc(C)cc3)c(N)c2-c2nc3ccccc3s2)[C@H](OC(C)=O)[C@@H](OC(C)=O)[C@@H]1OC(C)=O — growth (SRB; 10 µM, 48 h; baseline: untreated): 39.3%
COc1cccc(CNc2nc(NCc3ccccc3)c3ccccc3n2)c1 — GI50 (cell growth or viability; 24 h): 4.4 µM
CC(=C(c1ccc(O)cc1)c1ccc(Cl)cc1)c1ccc(Cl)cc1 — GI50 (cell growth or viability, SRB): 0.74 µM
COc1cc(CNC(=O)C[C@H](C)CCC=C(C)C)ccc1OCc1cn(-c2ccc(C#N)cc2)nn1 — growth percent (SRB; 10 µM, 48 h): 66.2%
COc1cccc2c(NCc3ccccc3)nc(Nc3cccc(Cl)c3)nc12 — GI50 (cell growth or viability; 72 h): 19 µM
COc1cc(CNC(=O)C[C@H](C)CCC=C(C)C)ccc1OCc1cn(-c2ccc(Cl)cc2Cl)nn1 — growth percent (SRB; 10 µM, 48 h): 79.6%
CC(=O)OC[C@H]1O[C@@H](Sc2sc(C(=O)c3ccc(Br)cc3)c(N)c2-c2nc3ccccc3s2)[C@H](OC(C)=O)[C@@H](OC(C)=O)[C@H]1OC(C)=O — growth (SRB; 10 µM, 48 h; baseline: untreated): 91.3%
Brc1cccc(CNc2nc(NCc3ccccc3)c3ccccc3n2)c1 — GI50 (cell growth or viability; 24 h): 3.4 µM
COc1cc(CNC(=O)C[C@H](C)CCC=C(C)C)ccc1OCc1cn(-c2ccccc2)nn1 — growth percent (SRB; 10 µM, 48 h): 88%
COc1cccc2c(NCc3ccccc3)nc(NCc3cccs3)nc12 — GI50 (cell growth or viability; 72 h): 0.7 µM
COc1ccc(C2=Nn3c(NN=C4C(=O)N(Cc5ccccc5)c5ccc(Cl)cc54)nnc3SC2)cc1 — inhibition (cell growth or viability, SRB; 10 µM): 43%

Excerpt of the above:
COc1cc(CNC(=O)C[C@H](C)CCC=C(C)C)ccc1OCc1cn(-c2ccc(Br)cc2)nn1 — growth percent (SRB; 10 µM, 48 h): 82.3%
COc1cc(CNC(=O)C[C@H](C)CCC=C(C)C)ccc1OCc1cn(-c2ccc(Cl)cc2Cl)nn1 — growth percent (SRB; 10 µM, 48 h): 79.6%
COc1cc(CNC(=O)C[C@H](C)CCC=C(C)C)ccc1OCc1cn(-c2ccccc2)nn1 — growth percent (SRB; 10 µM, 48 h): 88%
